Earlier results as cited in several papers.
Numbered parts are unrelated; values within a part may stem from several laboratories. Numbers after ± are the reported error.
UniProt P28564, sequence (whole entry, looked up): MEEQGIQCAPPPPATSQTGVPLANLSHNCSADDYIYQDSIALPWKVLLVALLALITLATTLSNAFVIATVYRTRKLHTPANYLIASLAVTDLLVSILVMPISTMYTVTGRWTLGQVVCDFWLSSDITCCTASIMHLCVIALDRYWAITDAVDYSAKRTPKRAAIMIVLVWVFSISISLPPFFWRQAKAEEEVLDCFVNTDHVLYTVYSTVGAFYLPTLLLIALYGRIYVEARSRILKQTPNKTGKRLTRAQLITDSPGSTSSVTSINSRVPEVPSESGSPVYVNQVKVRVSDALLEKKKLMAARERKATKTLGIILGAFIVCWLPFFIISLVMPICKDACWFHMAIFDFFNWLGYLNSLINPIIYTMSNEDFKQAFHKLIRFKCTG
UniProt P41595, sequence (whole entry, looked up): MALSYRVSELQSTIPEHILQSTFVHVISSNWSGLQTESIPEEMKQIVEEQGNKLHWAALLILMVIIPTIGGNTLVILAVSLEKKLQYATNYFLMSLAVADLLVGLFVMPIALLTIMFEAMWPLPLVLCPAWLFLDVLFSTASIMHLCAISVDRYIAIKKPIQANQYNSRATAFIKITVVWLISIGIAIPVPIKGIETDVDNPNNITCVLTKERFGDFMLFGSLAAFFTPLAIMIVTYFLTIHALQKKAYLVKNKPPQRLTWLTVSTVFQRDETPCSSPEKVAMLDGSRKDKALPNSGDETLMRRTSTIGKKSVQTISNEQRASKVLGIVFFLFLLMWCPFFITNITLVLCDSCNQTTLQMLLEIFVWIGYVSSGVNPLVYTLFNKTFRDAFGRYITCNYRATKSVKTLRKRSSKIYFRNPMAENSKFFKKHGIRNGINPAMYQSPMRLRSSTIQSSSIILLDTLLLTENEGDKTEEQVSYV

Series 1
Target: HLA class I histocompatibility antigen, A alpha chain, allele A*26:03 (Homo sapiens, UniProt P04439)
Read-out: peptide-MHC binding
Molecule type: peptide
`GELRKAICL` gave an IC50 of > 20 µM.
`EINAFVAGM` gave an IC50 of 0.023 µM.
For `LYNTVAVLY`, the IC50 was 20 µM.
For `VLDMGDPVK`, the IC50 was > 20 µM.
With `LTFLHTLYK` the IC50 was > 20 µM.
The IC50 of `EELKSLYNTV` is reported as > 20 µM.
The IC50 of `FQVNRFTGY` is reported as 0.454 µM.
The IC50 of `YMREVGAAL` is reported as > 20 µM.
The IC50 of `AVFDSFVER` is reported as > 20 µM.
For `TYSPALNKM`, the IC50 was > 20 µM.
With `IATLYCVHQK` the IC50 was > 20 µM.
With `DILASIIDY` the IC50 was > 20 µM.
`ALYLLDGLR` has an IC50 of 1.01 µM.
For `KGHLPLLDK`, the IC50 was > 20 µM.
The IC50 of `SYVFNFHKY` is reported as > 20 µM.
For `KSLFNTVATLY`, the IC50 was > 20 µM.
`YFENSDLNL` gave an IC50 of > 20 µM.
`RVYKNYDPR` has an IC50 of > 20 µM.
The IC50 of `FENDIDEIL` is reported as > 20 µM.
For `GFPSLESSF`, the IC50 was > 20 µM.
`AVYLLDGLR` has an IC50 of 0.324 µM.
With `TMLYNKMEF` the IC50 was > 20 µM.
For `LFNTVAVLY`, the IC50 was 20 µM.
`KNYPASLHK` gave an IC50 of > 20 µM.
`VSIRGSHHK` gave an IC50 of > 20 µM.

Further values, each from its own experiment
The selectivity ratio of `CO[C@H]1C[C@@H]2CC[C@@H](C)[C@@](O)(O2)C(=O)C(=O)N2CCCC[C@H]2C(=O)O[C@H]([C@H](C)C[C@@H]2CC[C@@H](OC(=O)NCCOCCOCCOCCOCCOCCOCCOCCOCCC(=O)N3CCc4cc(Cn5nc(-c6ccc7oc(N)nc7c6)c6c(N)ncnc65)ccc4C3)[C@H](OC)C2)C[C@@H](O)[C@H](C)/C=C(\C)[C@@H](O)[C@@H](OC)C(=O)[C@H](C)C[C@H](C)/C=C/C=C/C=C/1C` is reported as ~40 fold (mTORC1 and mTORC2; cell-based; relative to: mTORC1 over mTORC2).
The logKow of `c1cc2ccc3cccc4ccc(c1)c2c34` is reported as 5.41 (slow stirring).
`CCN(CC)CCCC(C)Nc1c2ccc(Cl)cc2nc2ccc(OC)cc12` (centres unmarked) gave an intrinsic clearance of 50.5 µL/min/mg protein (human liver microsomes).
`CC(C)(C)NC[C@H](O)COc1cccc2[nH]c(C#N)c(I)c12` [iodine-125 labelled] has a Kd of 0.00016 µM (5-hydroxytryptamine receptor 1B (Htr1b, Rattus norvegicus, UniProt P28564); radioligand binding; rat cerebral cortex; added: isoproterenol 30 µM).
The Ki of `Cc1ccc(NC(=O)c2ccc(C)c(-c3ccc(F)c(F)c3)c2)cc1-c1ccc(F)cc1` is reported as 400 ± 16 µM (human β-catenin/BCL9 interaction; inhibitor, AlphaScreen).
`O=C(N[C@@H]1CCC2C3Cc4ccc(O)c5c4[C@@]2(CCN3CC2CC2)C1O5)c1cccc(I)c1` (some centres unmarked) has an EC50 of 0.00032 ± 3e-05 µM (Mu-type opioid receptor (Oprm1, Mus musculus, UniProt P42866)).
For `CCc1c2c(nc3ccc(OC(=O)N4CCC(NCCCCC(=O)O)CC4)cc13)-c1cc3c(c(=O)n1C2)COC(=O)[C@]3(O)CC`, CYP inhibition read “no inhibition” (cytochrome P450 isoenzymes; concentration not given).
`C[C@@H](O)[C@H]1C(=O)N2C(C(=O)O)=C(S[C@@H]3CN[C@H](C(=O)N(C)C)C3)[C@H](C)[C@H]12` has a Km of 54 µM (Metallo-beta-lactamase type 2, Δ35 (blaNDM-1, Klebsiella pneumoniae, UniProt C7C422); substrate).
For `CC(NC(C)(C)C)C(=O)c1cccc(Cl)c1` (centres unmarked), the IC50 was 17.8 µM (nicotinic receptor α4β2).
`O=C(Nc1ccc(O[C@H]2CCNC2)c(-c2ccc(F)cc2)c1)c1ccc(O[C@H]2CCNC2)c(-c2ccc(F)c(F)c2)c1` has a Ki of 2.1 ± 0.41 µM (human β-catenin/BCL9 interaction; inhibitor, AlphaScreen).
`Cc1ccc(-c2nc3ccc(C)cn3c2CC(=O)N(C)C)cc1` — result for “blood to plasma ratio”: 0.76 (human).
`CC(C)c1nc(CN(C)C(=O)N[C@H](C(=O)N[C@@H](Cc2ccccc2)C[C@H](O)[C@H](Cc2ccccc2)NC(=O)OCc2cncs2)C(C)C)cs1` — result for “colchicine Cmax increase”: 184% (human; 100 mg twice daily).
`O=C(NC1C=C[C@H]2[C@H]3Cc4ccc(O)c5c4[C@@]2(CCN3CC2CC2)C1O5)c1cccc(I)c1` (some centres unmarked) has an ED50 of 0.33 ± 0.09 mg/kg (CD1 mice; subcutaneous).
Under “IC50, Ki or Kd”, `CCOC(=O)c1ccc(OC(=O)CCCCCNC(=N)N)cc1` is recorded as 1.6 µM (plasmin; enzyme activity, inhibitor).
Under “blood to plasma ratio”, `Cc1ncc2n1-c1ccc(Cl)cc1C(c1ccccc1F)=NC2` is recorded as 0.54 (human).
`CC(C)C[C@H](NC(=O)[C@H](Cc1ccccc1)NC(=O)c1cnccn1)B(O)O` has an IC50 of 8.7 µM (DPP7; enzyme activity, inhibitor, MS-based activity-based protein profiling).
For `CCc1c2c(nc3ccc(OC(=O)N4CCC(N5CCCCC5)CC4)cc13)-c1cc3c(c(=O)n1C2)COC(=O)[C@]3(O)CC`, the NOAEL was 0.06 mg/kg (refers to: offspring development; rabbit; organogenesis dosing).
`CC(C)(O/N=C(\C(=O)N[C@@H]1C(=O)N2C(C(=O)[O-])=C(C[N+]3(CCNC(=O)c4ccc(O)c(O)c4Cl)CCCC3)CS[C@H]12)c1csc(N)n1)C(=O)O` has a Km of 161 µM (Metallo-beta-lactamase type 2 (blaNDM-1, Klebsiella pneumoniae, UniProt C7C422); substrate).
`COc1cc(CC(C)N)c(OC)cc1I` (racemic) [iodine-125 labelled] has a Kd of 0.0002 µM (5-hydroxytryptamine receptor 2B (HTR2B, Homo sapiens, UniProt P41595); radioligand binding; CHO cells).
`CC(C)(C)[C@H](NC(=O)C(F)(F)F)C(=O)N1C[C@H]2[C@@H]([C@H]1C(=O)N[C@H](C#N)C[C@@H]1CCNC1=O)C2(C)C` — result for “hypertension adverse events”: 1% (adults at high risk of severe disease; dose not given; relative to: placebo).
For `COc1ccc2c(c1)[nH]c1c(C)nccc12`, the IC50 was > 10 µM (human CLK3; kinase activity, inhibitor).
The intrinsic clearance of `CCN(CC)CCOc1ccc2c(c1)C(=O)c1cc(OCCN(CC)CC)ccc1-2` is reported as 13.5 µL/min/mg protein (mouse liver microsomes).
`c1ccc2c(c1)OCC(C1=NCCN1)O2` (centres unmarked) has a Hill coefficient of 1 (imidazoline I2 receptor; binding; brain; historical reference data).
For `c1ccc2cc3c(cc2c1)-c1cccc2cccc-3c12`, the logKow was 6.63 (slow stirring).
With `C[C@@H](N)C1CCN(S(=O)(=O)c2cccc3cnccc23)CC1` the NOAEL was 25 mg/kg/day (rat).

A few entries again (series 1):
For `VLDMGDPVK`, the IC50 was > 20 µM.
`KNYPASLHK` gave an IC50 of > 20 µM.
The IC50 of `AVFDSFVER` is reported as > 20 µM.
With `IATLYCVHQK` the IC50 was > 20 µM.
With `LTFLHTLYK` the IC50 was > 20 µM.
